# Results from different studies.
# Parts stem from different laboratories: compare values within a part only.

# Block 1
# Cell line: HEK-293T
# Effect on: pseudovirus infection
# Technique: FDA-approved drug library screen
# Organism: VSV pseudotyped with SARS-CoV-2 spike
# Tested at: 10 µM
# Time: 16 h
# Baseline: vehicle-treated
Structure (SMILES),GFP-positive cells
CN1C(=O)OC(C)(C)C1=O,98.9%
CC(C)(C(=O)c1cccnc1)c1cccnc1,97%
c1ccc(CN(CC2=NCCN2)c2ccccc2)cc1,91.1%

# Block 2
# Target: Replicase polyprotein 1ab, main protease (rep, Severe acute respiratory syndrome coronavirus 2, UniProt P0DTD1)
# Effect on: enzyme activity
# Mode: inhibitor
# Tested at: 20 µM
# Setting: hit confirmation
Structure (SMILES),inhibition [%]
CCCc1cc(C(=N)S)ccn1,11.1
C/N=c1/nc(-c2ccccc2)n(-c2ccccc2)s1,100
CO/N=C(\C(=O)N[C@@H]1C(=O)N2C(C(=O)OCOC(=O)C(C)(C)C)=C(/C=C\c3scnc3C)CS[C@H]12)c1csc(N)n1,24
NC(Cc1cc(O)c(O)cc1O)C(=O)O (stereo not drawn),83.9

# Block 3
# Target: Replicase polyprotein 1ab, nsp13 helicase (rep, Severe acute respiratory syndrome coronavirus 2, UniProt P0DTD1)
# Mode: inhibitor
# Tested at: 20 µM
SMILES,inhibition [%]
Cc1cc(Nc2cc(C)c(C#N)c(N[C@@H](C)CCCC(C)(C)O)n2)n[nH]1,-3.34
C[C@]12CC[C@@H]3c4ccc(OC(=O)c5ccccc5)cc4CC[C@H]3[C@@H]1CC[C@@H]2O,-1.36
CO/N=C(\C(=O)N[C@@H]1C(=O)N2C(C(=O)O)=CCS[C@H]12)c1csc(N)n1,-0.58
Cc1cc(O)cc(C)c1Cl,4.22
C[C@H](Cc1ccc2c(c1)OC(C(=O)O)(C(=O)O)O2)NC[C@H](O)c1cccc(Cl)c1,7.09
O=C(OCCN1CCOCC1)c1cccnc1Nc1cccc(C(F)(F)F)c1,3.09
CNC(=O)c1cccc(NC(=O)N2CCC(Oc3ccccc3Cl)CC2)c1,6.22
CCCCCC(C)N (stereo not drawn),4.2
Cc1sc2c(c1C)C(c1ccc(Cl)cc1)=N[C@@H](CC(N)=O)c1nnc(C)n1-2,6
COc1cc(N2CCOCC2)ccc1Nc1ncc(Cl)c(Nc2ccccc2NS(C)(=O)=O)n1,8.18
O=C(O)c1cc2cc(Cc3cccnc3)ccc2o1,5.31
CCCNC(C)C(=O)Nc1c(C)csc1C(=O)OC (stereo not drawn),-1.48
COC(=O)/C=C/C(=O)OC,11.9
CSCC[C@H](NC(=O)[C@H](Cc1ccccc1)NC(=O)CNC(=O)CNC(=O)[C@@H](N)Cc1ccc(O)cc1)C(=O)O,-3.07
NC(=S)N/N=C/c1ncccc1N,-0.38

# Block 4
# Target: Phosphate system positive regulatory protein PHO4, full length, GST-tagged (PHO4, Saccharomyces cerevisiae, UniProt P07270, residues 1-312)
# Technique: competition protein-binding microarray
# Molecule type: double-stranded DNA, one strand shown
# Matrix: in vitro
# Tested at: 2 µM
# Setting: whole 60-bp probe, lowest competitor level
# Together with: Cbf1 competitor, 0.05 µM
# Direction: higher = stronger binding
# All sequences stand within: … GTCTTGATTCGCTTGACGCTGCTG
# Target sequence (chain): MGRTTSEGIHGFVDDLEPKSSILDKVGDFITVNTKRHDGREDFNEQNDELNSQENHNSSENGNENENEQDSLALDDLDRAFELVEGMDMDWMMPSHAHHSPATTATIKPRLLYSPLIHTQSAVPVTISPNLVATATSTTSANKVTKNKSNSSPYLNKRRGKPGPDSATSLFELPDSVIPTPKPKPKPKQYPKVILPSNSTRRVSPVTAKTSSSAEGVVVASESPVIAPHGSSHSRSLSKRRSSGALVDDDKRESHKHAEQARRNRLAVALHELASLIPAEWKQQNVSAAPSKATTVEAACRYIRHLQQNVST
Sequence,fluorescence intensity
AAAGCGGTAATTTGCCCCGTGGGTGCAGATATCTAT,9740 a.u.
CGTCCTAGCGATTGACTAGTGGGTGCCATGAGGAAG,5920 a.u.
AAATGAAGCCTCCTCCACGTTTATTGCCTTATTTAA,13500 a.u.
TTTTACAGCTGCAATCAGGTGAATTCGTTTCTTCGA,3360 a.u.
CTAACGAAGGTTTGTCACCCCACTTACAAGCCAAGT,3590 a.u.
TTAGCTCTGCTGCATTTGCTGTTCGTTTAGTAAAAA,3570 a.u.
TCTTGCTGATTCTGCATCGTGGTGAACAGACGGTTT,10800 a.u.
TGCGCAACAACTTGCTTCGTGGGTGTATGTCTAGAA,6030 a.u.

# A few entries again (block 2):
Structure (SMILES),inhibition [%]
CCCc1cc(C(=N)S)ccn1,11.1
C/N=c1/nc(-c2ccccc2)n(-c2ccccc2)s1,100
CO/N=C(\C(=O)N[C@@H]1C(=O)N2C(C(=O)OCOC(=O)C(C)(C)C)=C(/C=C\c3scnc3C)CS[C@H]12)c1csc(N)n1,24
NC(Cc1cc(O)c(O)cc1O)C(=O)O (stereo not drawn),83.9
